Measurements pooled from the literature.
Numbers after ± are the reported error. Converted amounts (≈) assume the structure as drawn.

SMILES	assay	system	setting	scale	endpoint	result
CN[C@@](C)(C[18F])C(=O)O	–	SCID mouse SK-OV-3 xenograft, muscle	120 min, post injection	–	tissue uptake	0.7 ± 0.2 %ID/g
CC[C@H](C)[C@H](NC(=O)[C@H](C)NC(=O)[C@H](CCCCN)NC(=O)[C@H](CC(C)C)NC(=O)[C@H](C)NC(=O)[C@@H](NC(=O)[C@H](Cc1c[nH]cn1)NC(=O)[C@H](CC(C)C)NC(=O)[C@@H](NC(=O)[C@@H](NC(=O)[C@H](CCCCN)NC(=O)[C@H](CCCCN)NC(=O)[C@H](C)NC(=O)[C@H](CO)NC(=O)[C@H](CCCCN)NC(=O)[C@H](Cc1ccccc1)NC(=O)[C@@H](NC(=O)[C@H](CCCCN)NC(=O)[C@H](CC(C)C)NC(=O)[C@H](Cc1ccccc1)NC(=O)[C@H](CO)NC(=O)[C@H](CCCCN)NC(=O)[C@H](Cc1c[nH]c2ccccc12)NC(=O)[C@H](CCCCN)NC(C)=O)[C@@H](C)O)[C@@H](C)O)C(C)C)[C@@H](C)O)C(=O)N[C@@H](CO)C(=O)N[C@@H](CO)C(N)=O	circular dichroism at 222 nm	buffer with 50% TFE	75 µM, 30 °C	–	mean residue ellipticity	-26300 deg cm² dmol⁻¹
COc1cccc2c1cc([N+](=O)[O-])c1c(C(=O)O)cc3c(c12)OCO3	–	Sprague-Dawley rat, male, isolated perfused kidney	50 µM, kidney B	–	renal clearance	0.00357 mL/min
O=C(NCCS)c1cccc(C(=O)NCCS)c1	–	rat, Sprague-Dawley, male, plasma	intravenous, 1 mg/kg, 1 h	–	plasma concentration	184 ng/mL
Cc1nc(-c2nc(-c3ccc(OC(F)(F)F)cc3)no2)nn1Cc1cccc(N2CCC(S(C)(=O)=O)CC2)c1	–	solid tumour patients	dose not given, treatment-related, without lactic acidosis	–	patients with lactate increase	87%
Oc1ccc2ccc3c4ccccc4cc4ccc1c2c43	UPLC-AMS	human, plasma	oral, 50 ng of [14C]-BaP	–	AUC	8.5 ± 6.07 fg BaP equivalents·h/mL
[123I]c1cncc(OC[C@@H]2CCN2)c1	SPECT	human, parietal lobe	intravenous bolus, 9.1 mCi	reference: tissue over plasma	tissue/plasma ratio	10.9
CCCCCOc1ccc(-c2cc(-c3ccc(C(=O)N[C@H]4C[C@@H](O)[C@@H](O)NC(=O)[C@@H]5[C@@H](O)[C@@H](C)CN5C(=O)[C@H]([C@H](O)CC(N)=O)NC(=O)[C@H]([C@H](O)[C@@H](O)c5ccc(O)c(OS(=O)(=O)O)c5)NC(=O)[C@@H]5C[C@@H](O)CN5C(=O)[C@H]([C@@H](C)O)NC4=O)cc3)no2)cc1	–	young infants, plasma	intravenous, 7 and 10 mg/kg/day pooled, day 4, median, repeat dosing	–	clearance at steady state	0.5 mL/min
NC(=O)c1nc(F)c[nH]c1=O	UV-Vis spectrophotometry	supercritical CO2	120 min, 308 K, 18 MPa, 848.87 kg/m^3	–	solubility	437 µg/mL (≈ 2780 µM)
CCCCCOc1ccc(-c2cc(-c3ccc(C(=O)N[C@H]4C[C@@H](O)[C@@H](O)NC(=O)[C@@H]5[C@@H](O)[C@@H](C)CN5C(=O)[C@H]([C@H](O)CC(N)=O)NC(=O)[C@H]([C@H](O)[C@@H](O)c5ccc(O)c(OS(=O)(=O)O)c5)NC(=O)[C@@H]5C[C@@H](O)CN5C(=O)[C@H]([C@@H](C)O)NC4=O)cc3)no2)cc1	–	human paediatric patients 2 to 5 years, plasma	intravenous, 4.5 mg/kg once daily, day 7, median	–	weight-normalised steady-state clearance	0.305 mL/min/kg
CSCC[C@@H]1NC(=O)[C@H](CC(=O)O)NC(=O)CNC(=O)[C@H](CCCNC(=N)N)NC(=O)[C@H](C)NC(=O)[C@H](CCC(=O)O)NC(=O)[C@H](CCCNC(=N)N)NC(=O)[C@@H]2CSSC[C@@H]3NC(=O)[C@H](CO)NC(=O)[C@H]([C@@H](C)O)NC(=O)[C@@H]4CCCN4C(=O)[C@H](C)NC(=O)[C@H](Cc4c[nH]c5ccccc45)NC(=O)[C@H](CC(=O)O)NC(=O)CNC(=O)[C@H](CCCNC(=N)N)NC(=O)CNC(=O)[C@H](CCC(N)=O)NC(=O)[C@@H]4CCCN4C(=O)[C@@H](NC(=O)CNC(=O)C(C)F)CSSC[C@H](NC(=O)CNC(=O)[C@H](C)NC(=O)[C@H](CC(C)C)NC(=O)[C@H](CSSC[C@@H](C(=O)NCC(N)=O)NC(=O)[C@H]([C@@H](C)O)NC(=O)[C@H](CCCNC(=N)N)NC(=O)[C@@H]4CCCN4C1=O)NC(=O)[C@H](CC(=O)O)NC(=O)[C@H](CO)NC(=O)[C@H](CC(=O)O)NC(=O)[C@H](CCC(N)=O)NC(=O)[C@H](CO)NC3=O)C(=O)N[C@@H](C(C)C)C(=O)N2 (some centres unmarked) [fluorine-18 labelled]	–	nude mice U-87 MG xenograft, intestine	intravenous, 2.5 h	–	tissue uptake	0.48 ± 0.09 %ID/g

Excerpt of the above:
SMILES	assay	system	setting	scale	endpoint	result
COc1cccc2c1cc([N+](=O)[O-])c1c(C(=O)O)cc3c(c12)OCO3	–	Sprague-Dawley rat, male, isolated perfused kidney	50 µM, kidney B	–	renal clearance	0.00357 mL/min
